Assay results collected from several papers.
Protocols differ between the studies behind these lines. “And” joins repeats or separate records; there may be more than shown. Numbers after ± are the reported error.

| SMILES | test system | conditions | scale | quantity | value |
| --- | --- | --- | --- | --- | --- |
| C[C@H](Oc1ccc(Br)cc1-c1ccon1)C(=O)O | human, plasma | 800 mg single dose | baseline: female over male | AUC(0-inf) ratio | 1.33 |
| C=CC(=O)NC1CCN(c2ncc3ncnc(Nc4ccc(Oc5ccc6c(c5)ncn6C)c(C)c4)c3n2)CC1 | human, male, plasma | oral, 30 mg, fed, adjusted geometric mean |  | AUC(0-inf) | 4.43 µM·h |
| Cc1nc(-c2ccc(OCC(C)C)c(C#N)c2)sc1C(=O)O | human, plasma | oral, 40 mg, with: high-fat meal | baseline: fasting | AUC(0-inf) reduction | 12% and ~12% |
| C=CC(=O)N(C)CCOc1c(N)ncnc1-c1cc(F)cc(NC(=O)c2ccc(C3CC3)cc2F)c1C | human, whole blood | oral, 200 mg, single ascending dose |  | AUC(0-inf) | 693 ng·h/mL |
| C=CC(=O)N(C)CCOc1c(N)ncnc1-c1cc(F)cc(NC(=O)c2ccc(C3CC3)cc2F)c1C | human | oral, 20 mg, day 7, median, with: ritonavir |  | AUC(0-inf) per dose | 21.6 ng·h/mL/mg |
| CC(C)=CCC/C(C)=C/CC/C(C)=C/CC[C@@](C)(O)CCC1=C(C)C(=O)C(C)=C(C)C1=O | healthy human, plasma | oral, 400 mg, single dose, alone |  | AUC(0-inf) geometric LS mean | 3850 ng·h/mL |
| Cc1cc(Nc2ncnc3ccc(NC4=NC(C)(CO)CO4)cc23)ccc1Oc1ccn2ncnc2c1 (centres unmarked) | human, plasma | tucatinib, day 10, with: rifampin once daily |  | AUC(0-inf) (arithmetic mean) | 367 ng·h/mL |
| CCOc1cc(CC(=O)N[C@@H](CC(C)C)c2ccccc2N2CCCCC2)ccc1C(=O)O | human | oral, dose not given, with: omaveloxolone | baseline: substrate alone | AUC(0-inf) decrease | 35% |
| CN(CC#N)C(=O)C[C@H](Nc1nc2ccccc2[nH]1)c1cccc(C(F)(F)F)c1 | human | intravenous infusion, 6 mg/kg, 1 mg/mL formulation |  | AUC(0-inf) | 25700 ± 5080 ng·h/mL |
| C=CC(=O)NC1CCN(c2ncc3ncnc(Nc4ccc(Oc5ccc6c(c5)ncn6C)c(C)c4)c3n2)CC1 | healthy male humans | oral, dose not given, with: carbamazepine | baseline: with over without carbamazepine | AUC(0-inf) ratio | 36.5% |
| N[C@]1(C(=O)O)[C@H]2[C@@H](C[C@@H]1F)[C@@H]2C(=O)O | human, both sexes, plasma | oral, 20 mg, single dose | baseline: fed over fasted | AUC(0-inf) ratio | 0.817 |
| CC1(C)CC[C@]2(NC(=O)C(C)(F)F)CC[C@]3(C)[C@H](C(=O)C=C4[C@@]5(C)C=C(C#N)C(=O)C(C)(C)[C@@H]5CC[C@]43C)[C@@H]2C1 | human, plasma | oral, dose not given, with: efavirenz | baseline: without efavirenz | AUC(0-inf) decrease | 48.5% |
| CC(C)[C@@H]1CC[C@@H](C)C[C@H]1OC(=O)O[C@@H](C)OC(=O)[C@H]1[C@@H]2C[C@H](F)[C@@](N)(C(=O)O)[C@@H]21 | human, plasma | oral, 20 mg, single dose | baseline: fed over fasted | AUC(0-inf) ratio | 0.963 |
| CC(C)c1nc(N(C)S(C)(=O)=O)nc(-c2ccc(F)cc2)c1/C=C/[C@@H](O)C[C@@H](O)CC(=O)O | healthy human subjects | oral, 10 mg, with: fruquintinib 5 mg | baseline: fruquintinib alone | AUC(0-inf) decrease | ~19% |
| NC[C@@]1(CC(=O)O)[C@@H]2CC[C@H]3C[C@@H]2[C@@H]1C3 | human, moderate renal impairment, plasma | dose not given | baseline: normal renal function | AUC(0-inf) increase | 120% |
| N[C@@H](CC(=O)N1CCn2c(nnc2C(F)(F)F)C1)Cc1cc(F)c(F)cc1F | human, male, plasma | oral, 100 mg single dose |  | AUC(0-inf) divided by body mass index | 147 ± 37 ng·h/mL |
| CCCS(=O)(=O)N[C@H]1C[C@@H](N(C)c2ncnc3[nH]ccc23)C1 | healthy human, plasma | oral, 100 mg |  | AUC(0-inf) geometric mean | 1550 ng·h/mL |

For quick reference, copied from above:
| SMILES | test system | conditions | scale | quantity | value |
| --- | --- | --- | --- | --- | --- |
| CC(C)=CCC/C(C)=C/CC/C(C)=C/CC[C@@](C)(O)CCC1=C(C)C(=O)C(C)=C(C)C1=O | healthy human, plasma | oral, 400 mg, single dose, alone |  | AUC(0-inf) geometric LS mean | 3850 ng·h/mL |
| Cc1cc(Nc2ncnc3ccc(NC4=NC(C)(CO)CO4)cc23)ccc1Oc1ccn2ncnc2c1 (centres unmarked) | human, plasma | tucatinib, day 10, with: rifampin once daily |  | AUC(0-inf) (arithmetic mean) | 367 ng·h/mL |
| CCOc1cc(CC(=O)N[C@@H](CC(C)C)c2ccccc2N2CCCCC2)ccc1C(=O)O | human | oral, dose not given, with: omaveloxolone | baseline: substrate alone | AUC(0-inf) decrease | 35% |
